Published values collected from several papers.
Numbers after ± are the reported error.
Cell line: HeLa

The IC50 of `Cc1nn(-c2ccccc2)c(O)c1C(c1ccc(F)cc1)c1c(C)nn(-c2ccccc2)c1O` is reported as 36.8 µM (cell growth or viability, MTT; 48 h).
`CC(C)C[C@H](NC(=O)[C@H](CCCCN)NC(=O)[C@H](CC(C)C)NC(=O)[C@H](CC(C)C)NC(=O)[C@H](CCCCN)NC(=O)[C@H](CCCCN)NC(=O)[C@H](CC(C)C)NC(=O)[C@H](CC(C)C)NC(=O)[C@H](CCCCN)NC(=O)[C@H](CC(C)C)NC(=O)[C@H](CC(C)C)NC(=O)[C@H](CCCCN)NC(=O)[C@H](CCCCN)NC(=O)[C@@H](N)CC(C)C)C(N)=O` gave an IC50 of 10.3 µM (cell growth or viability, MTT; pH 7.4).
`C[C@H]1O[C@@H](O[C@H]2CC[C@@]3(C)[C@H](CC[C@@H]4[C@@H]3C[C@@H](O)[C@]3(C)[C@@H](C5=CC(=O)OC5)CC[C@]43O)C2)C[C@H](O)[C@@H]1O[C@@H]1O[C@H](CO)[C@@H](O)[C@H](O)[C@H]1O` gave an IC50 of 0.16 µM (cell growth or viability, MTT; 48 h).
With `Cc1ccc(C(c2c(C)nn(-c3ccccc3)c2O)c2c(C)nn(-c3ccccc3)c2O)cc1` the IC50 was 38.4 µM (cell growth or viability, MTT; 48 h).
`CC(C)C[C@H](NC(=O)[C@H](CCCCN)NC(=O)[C@H](CC(C)C)NC(=O)[C@H](CC(C)C)NC(=O)[C@H](CCCCN)NC(=O)[C@H](CCCCN)NC(=O)[C@H](CC(C)C)NC(=O)[C@H](CC(C)C)NC(=O)[C@H](CCCCN)NC(=O)[C@H](CC(C)C)NC(=O)[C@H](CC(C)C)NC(=O)[C@H](CCCCN)NC(=O)[C@H](CCCCN)NC(=O)[C@H](CC(C)C)NC(=O)[C@@H](N)CSSC[C@H](N)C(=O)N[C@@H](CC(C)C)C(=O)N[C@@H](Cc1c[nH]cn1)C(=O)N[C@@H](CCC(=O)O)C(=O)N[C@@H](CC(C)C)C(=O)N[C@@H](CC(C)C)C(=O)N[C@@H](CCC(=O)O)C(=O)N[C@@H](Cc1c[nH]cn1)C(=O)N[C@@H](CC(C)C)C(=O)N[C@@H](Cc1c[nH]cn1)C(=O)N[C@@H](CCC(=O)O)C(=O)N[C@@H](CC(C)C)C(=O)N[C@@H](CC(C)C)C(=O)N[C@@H](CCC(=O)O)C(=O)N[C@@H](Cc1c[nH]cn1)C(N)=O)C(N)=O` gave an IC50 of 11.3 µM (cell growth or viability, MTT; pH 6).
`O=C(c1ccccc1O)c1[nH]c(Cl)c(Cl)c1-n1c(C(=O)c2ccccc2O)cc(Cl)c1Cl` has an IC50 of 4.2 µg/mL (cell growth or viability, resazurin; 24 h).
For `NC(=O)c1cccc2c3c([nH]c12)CCC(N)C3` (stereo not shown), the IC50 was 0.147 µM (cell growth or viability).
The IC50 of `CC1=CC=c2ccc3c4c2[N]1[Re](=[C]=O)(=[C]=O)(=[C]=O)([C]#[N+]c1cc(C)cc(C)c1)[N]4C(C)=CC=3.O=S(=O)([O-])C(F)(F)F` is reported as 6.8 µM (cell growth or viability, MTT; 48 h).
With `NC(=O)CC[C@@H](NC(=O)[C@@H](CCC(N)=O)NC(=O)[C@@H](CC(N)=O)NC(=O)[C@@H](CC(N)=O)NC(=O)CNC(=O)Cc1ccc2ccccc2c1)C(=O)N[C@H](CC(N)=O)C(=O)N[C@H](Cc1ccc(OP(=O)(O)O)cc1)C(=O)O` the IC50 was over 500 µM.
`CC1OC(OC2CCC3(C)C(CCC4C3CCC3(C)C(C5=CC(=O)OC5)CCC43O)C2)C(O)C(O)C1OC1OC(CO)C(O)C(O)C1O` (stereo not shown) has an IC50 of 0.03 µM (cell growth or viability, MTT; 48 h).
`C#CCCCC[C@H](C)C[C@@H](C)C(=O)N[C@@H](C)C(=O)N1CCC[C@H]1C(=O)N[C@H](C(=O)N[C@H](C(=O)N[C@H](C(=O)N[C@@H](Cc1ccccc1)C(=O)N1CCC[C@H]1C(=O)N1CCC[C@H]1C(C)=O)C(C)C)C(C)C)C(C)C` gave an IC50 of 39 µM (cell growth or viability, SRB).
The IC50 of `CCCCCCCCCCCCCCCC(=O)NCCCC[C@H](NC(=O)[C@H](CSCC(=O)NCc1cn(CCOc2ccc(C3=C4C(C)=C(I)C(C)=[N+]4[B-](F)(F)n4c(C)c(I)c(C)c43)cc2)nn1)NC(=O)c1ccc(-c2nnc(C)nn2)cc1)C(=O)N[C@@H](CCCNC(=N)N)C(=O)N[C@@H](CCCNC(=N)N)C(=O)N[C@@H](CCCNC(=N)N)C(=O)N[C@@H](CCCNC(=N)N)C(N)=O` is reported as 0.369 ± 0.03 µM (phototoxicity; 2 h plus 18 h, 2.5% FBS, with: irradiation 525 nm for 160 s).
`CN(C)c1ccc(-c2nc3ccccc3s2)[c]([Pt][O]C(=O)c2ccccc2P(c2ccccc2)c2ccccc2)c1` gave an IC50 of 1.5 µM (photoactivated).
For `C[C@H](N)[C@@H](CCCCCCCCCCCCCCC(=O)CCCCCCC[C@@H](O)[C@@H](C)N)O[C@@H]1O[C@H](CO)[C@H](O)[C@H](O)[C@H]1O`, the IC50 was 12.5 µM (cell growth or viability).
For `CC[C@H](C)[C@H](NC(=O)[C@H](C)NC(=O)[C@H](CCCCN)NC(=O)[C@H](CCCCN)NC(=O)[C@@H](N)CCCNC(=N)N)C(=O)N[C@@H](CCCCN)C(=O)N[C@@H](CC(C)C)C(=O)N[C@H](C(=O)N[C@@H](CCCCN)C(=O)N[C@@H](CCCCN)C(=O)N[C@@H](CC(C)C)C(=O)N[C@H](C(=O)N[C@@H](CCCCN)C(=O)N[C@@H](CCCCN)C(=O)N[C@@H](CC(C)C)C(=O)N[C@@H](CCCCN)C(=O)N[C@@H](CCCCN)C(=O)N[C@@H](C)C(=O)N[C@@H](CC(C)C)C(=O)N[C@@H](CCCCN)C(=O)O)C(C)C)C(C)C`, the IC50 was over 128 µg/mL (cell growth or viability, MTT).
`O=C(Cc1ccc2ccccc2c1)N[C@H](Cc1ccc(O)cc1)C(=O)N[C@H](Cc1ccccc1)C(=O)N[C@H](Cc1ccccc1)C(=O)N[C@H](Cc1ccc(O)cc1)C(=O)O` has an IC50 of over 500 µg/mL (cell growth or viability, MTT).

A few entries again:
`C#CCCCC[C@H](C)C[C@@H](C)C(=O)N[C@@H](C)C(=O)N1CCC[C@H]1C(=O)N[C@H](C(=O)N[C@H](C(=O)N[C@H](C(=O)N[C@@H](Cc1ccccc1)C(=O)N1CCC[C@H]1C(=O)N1CCC[C@H]1C(C)=O)C(C)C)C(C)C)C(C)C` gave an IC50 of 39 µM (cell growth or viability, SRB).
The IC50 of `CCCCCCCCCCCCCCCC(=O)NCCCC[C@H](NC(=O)[C@H](CSCC(=O)NCc1cn(CCOc2ccc(C3=C4C(C)=C(I)C(C)=[N+]4[B-](F)(F)n4c(C)c(I)c(C)c43)cc2)nn1)NC(=O)c1ccc(-c2nnc(C)nn2)cc1)C(=O)N[C@@H](CCCNC(=N)N)C(=O)N[C@@H](CCCNC(=N)N)C(=O)N[C@@H](CCCNC(=N)N)C(=O)N[C@@H](CCCNC(=N)N)C(N)=O` is reported as 0.369 ± 0.03 µM (phototoxicity; 2 h plus 18 h, 2.5% FBS, with: irradiation 525 nm for 160 s).
